Measurements collected from several papers.
Every numbered part comes from another study and shows a few of its results, in no order.
UniProt P25100, sequence (whole entry, looked up): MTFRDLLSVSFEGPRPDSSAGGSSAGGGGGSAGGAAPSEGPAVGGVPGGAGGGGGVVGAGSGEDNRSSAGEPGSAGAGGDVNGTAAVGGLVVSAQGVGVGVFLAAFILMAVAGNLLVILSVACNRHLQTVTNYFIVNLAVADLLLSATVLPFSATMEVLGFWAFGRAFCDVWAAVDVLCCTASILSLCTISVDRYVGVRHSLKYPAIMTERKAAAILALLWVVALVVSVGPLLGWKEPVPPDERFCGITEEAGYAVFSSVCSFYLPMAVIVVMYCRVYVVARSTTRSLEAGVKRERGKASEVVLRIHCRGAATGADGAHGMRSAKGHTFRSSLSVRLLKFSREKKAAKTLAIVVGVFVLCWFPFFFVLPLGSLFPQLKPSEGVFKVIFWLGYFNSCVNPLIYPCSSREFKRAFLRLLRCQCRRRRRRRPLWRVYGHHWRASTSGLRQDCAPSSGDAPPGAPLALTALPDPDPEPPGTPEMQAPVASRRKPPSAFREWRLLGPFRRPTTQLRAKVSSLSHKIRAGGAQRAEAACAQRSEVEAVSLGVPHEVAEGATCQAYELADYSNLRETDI
UniProt Q9H3N8, sequence (whole entry, looked up): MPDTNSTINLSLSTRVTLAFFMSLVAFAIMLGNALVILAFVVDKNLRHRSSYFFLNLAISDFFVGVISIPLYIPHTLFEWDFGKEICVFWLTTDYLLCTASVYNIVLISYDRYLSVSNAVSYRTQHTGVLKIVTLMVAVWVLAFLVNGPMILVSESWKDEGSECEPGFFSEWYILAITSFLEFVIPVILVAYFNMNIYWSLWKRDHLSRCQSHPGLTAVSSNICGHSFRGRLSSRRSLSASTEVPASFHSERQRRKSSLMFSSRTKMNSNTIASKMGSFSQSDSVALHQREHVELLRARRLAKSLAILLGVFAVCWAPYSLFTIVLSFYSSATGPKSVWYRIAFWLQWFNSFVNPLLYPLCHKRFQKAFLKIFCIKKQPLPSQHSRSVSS
UniProt P13945, sequence (whole entry, looked up): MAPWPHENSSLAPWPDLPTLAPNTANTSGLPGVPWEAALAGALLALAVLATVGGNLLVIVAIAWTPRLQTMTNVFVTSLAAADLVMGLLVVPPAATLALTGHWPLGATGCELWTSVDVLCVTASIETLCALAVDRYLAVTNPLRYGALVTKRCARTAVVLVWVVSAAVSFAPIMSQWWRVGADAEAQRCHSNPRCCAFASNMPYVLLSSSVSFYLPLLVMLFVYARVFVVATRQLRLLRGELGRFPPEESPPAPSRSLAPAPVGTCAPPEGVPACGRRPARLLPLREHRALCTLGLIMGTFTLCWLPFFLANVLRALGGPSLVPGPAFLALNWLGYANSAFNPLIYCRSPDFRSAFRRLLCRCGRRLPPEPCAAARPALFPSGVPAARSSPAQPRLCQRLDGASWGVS
UniProt P46098, sequence (whole entry, looked up): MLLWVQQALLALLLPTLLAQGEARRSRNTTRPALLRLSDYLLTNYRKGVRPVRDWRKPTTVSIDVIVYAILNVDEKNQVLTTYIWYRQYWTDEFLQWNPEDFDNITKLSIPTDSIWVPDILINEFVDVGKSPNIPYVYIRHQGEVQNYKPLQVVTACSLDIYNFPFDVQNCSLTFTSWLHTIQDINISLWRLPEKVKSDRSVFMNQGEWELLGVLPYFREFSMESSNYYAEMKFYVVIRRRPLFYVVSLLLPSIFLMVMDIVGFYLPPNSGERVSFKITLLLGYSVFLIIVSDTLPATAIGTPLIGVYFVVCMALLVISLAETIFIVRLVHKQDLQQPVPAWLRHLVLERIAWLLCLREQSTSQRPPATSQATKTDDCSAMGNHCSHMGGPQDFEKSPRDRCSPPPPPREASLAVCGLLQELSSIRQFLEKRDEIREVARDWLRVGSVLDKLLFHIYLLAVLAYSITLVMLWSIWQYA

Sample 1
Compound: N#CN1CC[C@@H](C(=O)Nc2nc3c(s2)CN(C(=O)CN=[N+]=[N-])CC3)C1
Concentration: 10 µM
For ADRA2C (Homo sapiens, UniProt P18825); binding, radioligand binding: inhibition read 4.21%.
For HTR7 (Homo sapiens, UniProt P34969); binding, radioligand binding: inhibition read -1.05%.
It gave 6.46% for inhibition (ADRA2B (Homo sapiens, UniProt P18089); binding, radioligand binding).
HRH1 (Homo sapiens, UniProt P35367); binding, radioligand binding — inhibition: 0.43%.
The inhibition was -12% (CHRM2 (Homo sapiens, UniProt P08172); binding, radioligand binding).
The inhibition was 3.43% (HRH2 (Homo sapiens, UniProt P25021); binding, radioligand binding).
HTR3A (Homo sapiens, UniProt P46098); cell-free assay — inhibition: 0.95%.
For DRD1 (Homo sapiens, UniProt P21728); binding, radioligand binding: inhibition read 8.27%.
ADRA1D (Homo sapiens, UniProt P25100); binding, radioligand binding — inhibition: 0.34%.
CHRM4 (Homo sapiens, UniProt P08173); binding, radioligand binding — inhibition: -1.43%.
It gave -15.2% for inhibition (ADRB3 (Homo sapiens, UniProt P13945); binding, radioligand binding).
The inhibition was -10.9% (HRH4 (Homo sapiens, UniProt Q9H3N8); binding, radioligand binding).

Sample 2
Target: DNA polymerase theta, helicase domain (POLQ, Homo sapiens, UniProt O75417)
UniProt O75417, sequence (whole entry, looked up): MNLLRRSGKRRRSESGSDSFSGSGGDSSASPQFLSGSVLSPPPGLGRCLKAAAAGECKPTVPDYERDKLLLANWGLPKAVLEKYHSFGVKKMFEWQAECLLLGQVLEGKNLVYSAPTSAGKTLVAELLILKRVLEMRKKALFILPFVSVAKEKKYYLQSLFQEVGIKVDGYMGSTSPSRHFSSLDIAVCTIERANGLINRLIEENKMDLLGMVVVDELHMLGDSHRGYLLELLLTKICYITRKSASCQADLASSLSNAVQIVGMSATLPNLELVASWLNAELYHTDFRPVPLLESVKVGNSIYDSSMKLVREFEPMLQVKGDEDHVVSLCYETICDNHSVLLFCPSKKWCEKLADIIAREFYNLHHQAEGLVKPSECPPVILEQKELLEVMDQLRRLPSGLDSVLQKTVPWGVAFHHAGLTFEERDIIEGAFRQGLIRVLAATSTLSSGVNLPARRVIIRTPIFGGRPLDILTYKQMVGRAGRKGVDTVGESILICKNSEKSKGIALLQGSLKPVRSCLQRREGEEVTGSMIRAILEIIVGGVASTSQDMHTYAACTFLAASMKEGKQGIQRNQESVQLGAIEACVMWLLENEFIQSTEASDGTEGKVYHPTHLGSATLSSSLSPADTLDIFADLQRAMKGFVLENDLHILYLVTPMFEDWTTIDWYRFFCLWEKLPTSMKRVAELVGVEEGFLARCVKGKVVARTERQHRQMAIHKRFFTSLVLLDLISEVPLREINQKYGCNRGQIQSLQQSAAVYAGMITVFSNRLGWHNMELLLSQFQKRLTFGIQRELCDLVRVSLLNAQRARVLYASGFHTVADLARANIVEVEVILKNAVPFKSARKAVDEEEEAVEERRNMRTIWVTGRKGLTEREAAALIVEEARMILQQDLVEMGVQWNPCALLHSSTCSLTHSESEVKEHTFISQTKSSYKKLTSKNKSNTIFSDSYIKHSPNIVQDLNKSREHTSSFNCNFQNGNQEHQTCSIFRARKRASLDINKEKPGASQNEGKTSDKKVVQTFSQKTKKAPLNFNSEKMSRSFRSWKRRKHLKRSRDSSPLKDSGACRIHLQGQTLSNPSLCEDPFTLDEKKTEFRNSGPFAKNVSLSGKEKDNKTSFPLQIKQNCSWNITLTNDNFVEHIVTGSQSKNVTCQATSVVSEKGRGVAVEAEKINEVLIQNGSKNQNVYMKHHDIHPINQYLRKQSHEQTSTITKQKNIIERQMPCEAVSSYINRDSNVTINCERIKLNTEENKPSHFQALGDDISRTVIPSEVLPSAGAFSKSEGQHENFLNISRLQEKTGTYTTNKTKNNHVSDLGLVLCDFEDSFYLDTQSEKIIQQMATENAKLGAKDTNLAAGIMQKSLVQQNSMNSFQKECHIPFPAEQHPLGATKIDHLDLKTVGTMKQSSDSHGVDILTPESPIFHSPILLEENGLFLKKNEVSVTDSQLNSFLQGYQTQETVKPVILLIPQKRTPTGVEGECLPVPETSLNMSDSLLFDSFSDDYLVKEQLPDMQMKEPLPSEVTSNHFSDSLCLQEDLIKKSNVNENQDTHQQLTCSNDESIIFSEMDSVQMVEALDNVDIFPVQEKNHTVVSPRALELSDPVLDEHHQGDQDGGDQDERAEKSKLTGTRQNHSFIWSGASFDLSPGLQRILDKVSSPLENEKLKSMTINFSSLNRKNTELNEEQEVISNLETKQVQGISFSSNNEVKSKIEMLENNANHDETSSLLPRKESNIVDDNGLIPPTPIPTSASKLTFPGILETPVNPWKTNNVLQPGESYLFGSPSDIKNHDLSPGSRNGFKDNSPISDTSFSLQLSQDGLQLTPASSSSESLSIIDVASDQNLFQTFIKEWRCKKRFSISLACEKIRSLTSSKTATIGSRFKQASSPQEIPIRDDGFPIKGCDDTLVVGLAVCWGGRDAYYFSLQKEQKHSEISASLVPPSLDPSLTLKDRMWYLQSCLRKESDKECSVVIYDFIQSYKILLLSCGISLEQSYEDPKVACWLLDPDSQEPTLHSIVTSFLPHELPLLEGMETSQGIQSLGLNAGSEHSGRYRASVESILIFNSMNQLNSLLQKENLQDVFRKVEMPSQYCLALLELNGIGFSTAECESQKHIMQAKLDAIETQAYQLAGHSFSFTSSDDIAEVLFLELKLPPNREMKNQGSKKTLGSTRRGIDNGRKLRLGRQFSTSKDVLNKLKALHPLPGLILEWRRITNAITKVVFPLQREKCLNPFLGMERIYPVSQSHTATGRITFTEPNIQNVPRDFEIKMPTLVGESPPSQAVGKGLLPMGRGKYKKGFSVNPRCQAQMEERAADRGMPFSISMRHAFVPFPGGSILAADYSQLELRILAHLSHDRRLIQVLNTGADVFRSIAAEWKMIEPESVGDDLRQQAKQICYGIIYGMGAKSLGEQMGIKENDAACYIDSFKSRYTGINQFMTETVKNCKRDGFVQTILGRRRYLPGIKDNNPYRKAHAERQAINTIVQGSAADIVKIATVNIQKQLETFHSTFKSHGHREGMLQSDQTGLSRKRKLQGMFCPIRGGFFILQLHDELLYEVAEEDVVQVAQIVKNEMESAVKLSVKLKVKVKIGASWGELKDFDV
Mode: inhibitor
Concentration: concentration not given
Notes: absolute value
Added: with minus without ssDNA
`O=C(CSc1ncc(S(=O)(=O)c2ccc(Br)cc2)c(=O)[nH]1)NCc1ccc(Cl)cc1` — result for “difference in remaining activity”: 11.9%.
For `CCOc1ccc2nc3cc(N)ccc3c(N)c2c1`, “difference in remaining activity” read 65.9%.
Under “difference in remaining activity”, `O=C1c2c(O)ccc(O)c2C(=O)c2c(NCCNCCO)ccc(NCCNCCO)c21` is recorded as 71.3%.
`Cc1ccc(C(=O)c2cc(O)c(O)c([N+](=O)[O-])c2)cc1`: “difference in remaining activity” 8.38%.
For `Cc1ccc(-c2n[nH]c3c2C(c2ccccc2Cl)N(c2ccc(C(=O)O)cc2)C3=O)cc1` (stereo not drawn), “difference in remaining activity” read 8.67%.
`CSc1ccc(/C=C/c2nc3ccccc3n2S(=O)(=O)c2ccc(Br)cc2)cc1`: “difference in remaining activity” 15.1%.
`CCC(C)(Oc1ccc(C2(c3ccc(OC(C)(CC)C(=O)O)cc3)CCCCC2)cc1)C(=O)O` (stereo not drawn): “difference in remaining activity” 61.5%.
`O=C(Nc1noc2ccccc12)c1ccc(F)cc1` — result for “difference in remaining activity”: 4.19%.

Sample 3
Target: Calcium/calmodulin-dependent protein kinase type II subunit alpha (CAMK2A, Homo sapiens, UniProt Q9UQM7)
UniProt Q9UQM7, sequence (whole entry, looked up): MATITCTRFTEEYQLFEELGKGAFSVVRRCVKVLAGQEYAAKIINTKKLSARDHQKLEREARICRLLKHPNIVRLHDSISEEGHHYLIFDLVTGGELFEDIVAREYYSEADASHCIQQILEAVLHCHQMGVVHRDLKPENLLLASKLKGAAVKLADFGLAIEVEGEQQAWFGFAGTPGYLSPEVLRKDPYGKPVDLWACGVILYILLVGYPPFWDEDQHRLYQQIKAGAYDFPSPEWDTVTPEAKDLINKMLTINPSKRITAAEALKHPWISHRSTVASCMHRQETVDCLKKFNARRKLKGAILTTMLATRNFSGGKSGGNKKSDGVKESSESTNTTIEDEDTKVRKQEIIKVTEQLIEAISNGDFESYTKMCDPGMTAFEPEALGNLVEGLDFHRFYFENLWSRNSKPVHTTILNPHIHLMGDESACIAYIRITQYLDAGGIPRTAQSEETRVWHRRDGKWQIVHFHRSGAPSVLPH
Read-out: enzyme activity
Mode: inhibitor
Concentration: 10 µM
The inhibition of `CC1(C)CC[C@]2(C(=O)O)CC[C@]3(C)C(=CC[C@@H]4[C@@]5(C)CC[C@H](O[C@@H]6O[C@H](C(=O)O)[C@@H](O)[C@H](O)[C@H]6O[C@@H]6O[C@H](CO)[C@@H](O)[C@H](O)[C@H]6O)C(C)(C)[C@@H]5CC[C@]43C)[C@@H]2C1` is reported as -33%.
`CC[C@H](CC[C@@H](C)[C@H]1CC[C@H]2[C@@H]3CC=C4C[C@@H](O[C@@H]5O[C@H](CO)[C@@H](O)[C@H](O)[C@H]5O)CC[C@]4(C)[C@H]3CC[C@]12C)C(C)C` has an inhibition of -27%.
With `CC(=O)NCCCCCN` the inhibition was 47%.
For `CCC(C(=O)O)C(=O)O`, the inhibition was -3%.
With `C[C@@H](CO)CCC[C@@H](C)[C@H]1CC[C@H]2[C@@H]3CC=C4C[C@@H](O)CC[C@]4(C)[C@H]3CC[C@]12C` the inhibition was -2%.
`OC[C@H]1O[C@@H](Oc2ccc3c(c2)OC[C@H]2c4cc5c(cc4O[C@@H]32)OCO5)[C@H](O)[C@@H](O)[C@@H]1O` has an inhibition of 15%.

Sample 4
Cell line: mouse MPNST tumor cells
Technique: high-content immunofluorescence imaging
Measured: nuclear SOX9
Concentration: 10 µM
Time: 12 h
Notes: mean of 2 replicates
Relative to: DMSO control
Reading: higher = more nuclear SOX9
Under “nuclear SOX9 intensity”, `CCC(Cc1c(I)cc(I)c(N)c1I)C(=O)O` (stereo not drawn) is recorded as 85.3 % of DMSO.
Under “nuclear SOX9 intensity”, `c1cc(OCCN2CCCCC2)cc(-c2n[nH]c3ccc(-c4nnc[nH]4)cc23)c1` is recorded as 110 % of DMSO.
`OCC(O)CN1CCN(c2ccccc2)CC1` (racemic): “nuclear SOX9 intensity” 97.6 % of DMSO.
`CCCCCCCCCCC(C)(C)C(=O)Nc1c(OC)cc(OC)cc1OC` — result for “nuclear SOX9 intensity”: 101 % of DMSO.
`CCCCOc1cc(CC2CNC(=O)N2)ccc1OC` (stereo not drawn): “nuclear SOX9 intensity” 94.7 % of DMSO.
For `CC1(C)CCC(C)(C)c2cc(NC(=O)c3ccc(C(=O)O)cc3)ccc21`, “nuclear SOX9 intensity” read 110 % of DMSO.
Under “nuclear SOX9 intensity”, `COc1ccc(COc2ccc(CC#N)cc2)cc1` is recorded as 94.1 % of DMSO.
`CC(C)(C)C(=O)C(=Nc1ccc(Cl)cc1)NNc1ccc(Cl)cc1` — result for “nuclear SOX9 intensity”: 105 % of DMSO.
`CCCN1CCC[C@@H](c2cccc(S(C)(=O)=O)c2)C1` — result for “nuclear SOX9 intensity”: 93 % of DMSO.
For `CNC(=O)COC(=O)NCCC1CCN(c2cccc(C)n2)CC1`, “nuclear SOX9 intensity” read 102 % of DMSO.
Under “nuclear SOX9 intensity”, `CC(C)(C)NCC(O)c1cc(O)cc(O)c1` (stereo not drawn) is recorded as 109 % of DMSO.
`CC(=O)Nc1ccc(OCC(O)CNC(C)C)cc1` (stereo not drawn): “nuclear SOX9 intensity” 108 % of DMSO.
`O=c1[nH]c2ccc(-c3c(Cl)cccc3OC(F)(F)F)cc2[nH]1`: “nuclear SOX9 intensity” 132 % of DMSO.

Repeated from above (sample 2):
`Cc1ccc(C(=O)c2cc(O)c(O)c([N+](=O)[O-])c2)cc1`: “difference in remaining activity” 8.38%.
`CCC(C)(Oc1ccc(C2(c3ccc(OC(C)(CC)C(=O)O)cc3)CCCCC2)cc1)C(=O)O` (stereo not drawn): “difference in remaining activity” 61.5%.
`O=C(Nc1noc2ccccc12)c1ccc(F)cc1` — result for “difference in remaining activity”: 4.19%.
